Results gathered from unrelated publications.
Numbered parts are unrelated; each lists some results of a single study. Positions count from the first letter of the parent shown.

Set 1
Target: Sal-like protein 4, full length isoform A (SALL4, Homo sapiens, UniProt Q9UJQ4, residues 1-1053)
UniProt Q9UJQ4, sequence (whole entry, looked up): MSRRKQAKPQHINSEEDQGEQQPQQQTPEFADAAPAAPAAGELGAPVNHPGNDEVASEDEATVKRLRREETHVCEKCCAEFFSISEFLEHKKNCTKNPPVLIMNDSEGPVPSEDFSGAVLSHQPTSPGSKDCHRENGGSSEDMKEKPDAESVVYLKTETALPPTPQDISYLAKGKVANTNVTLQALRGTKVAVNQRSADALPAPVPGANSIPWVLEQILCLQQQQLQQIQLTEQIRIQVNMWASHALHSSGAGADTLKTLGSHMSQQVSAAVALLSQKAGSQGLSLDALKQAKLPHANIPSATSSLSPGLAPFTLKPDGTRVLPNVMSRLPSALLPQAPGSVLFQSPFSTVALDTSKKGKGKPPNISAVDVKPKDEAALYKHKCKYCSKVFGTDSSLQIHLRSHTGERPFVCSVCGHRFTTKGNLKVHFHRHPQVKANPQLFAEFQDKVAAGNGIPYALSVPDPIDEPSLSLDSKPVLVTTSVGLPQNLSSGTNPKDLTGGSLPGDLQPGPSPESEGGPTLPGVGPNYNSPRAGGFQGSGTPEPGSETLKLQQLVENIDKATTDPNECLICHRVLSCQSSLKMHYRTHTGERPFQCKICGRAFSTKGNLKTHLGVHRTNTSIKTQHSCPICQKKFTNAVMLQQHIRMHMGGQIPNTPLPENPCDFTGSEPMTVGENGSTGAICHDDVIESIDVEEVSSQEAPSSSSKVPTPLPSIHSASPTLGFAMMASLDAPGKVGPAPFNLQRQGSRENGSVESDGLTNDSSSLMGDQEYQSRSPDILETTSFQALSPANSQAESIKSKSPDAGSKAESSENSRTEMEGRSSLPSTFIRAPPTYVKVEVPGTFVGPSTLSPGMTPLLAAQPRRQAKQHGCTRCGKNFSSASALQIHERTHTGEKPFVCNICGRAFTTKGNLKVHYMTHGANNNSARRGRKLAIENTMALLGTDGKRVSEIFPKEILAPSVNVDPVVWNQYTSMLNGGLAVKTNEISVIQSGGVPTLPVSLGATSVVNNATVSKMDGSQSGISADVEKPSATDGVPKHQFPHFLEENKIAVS
Technique: universal PBM
Molecule type: double-stranded DNA, one strand shown
Sample: in vitro
Tested at: 600 nM
Setting: 8-mer, flanks averaged, mean of replicates
Direction: higher = stronger binding
Oligonucleotide | E-score
ATCTGAAC | 0.0854
GGAATGCA | 0.0516
ATCTCGTA | 0.237
GGAACATA | 0.222
ACGGATTA | 0.187
GCGAAAAA | 0.147

Set 2
Target: ABI1, truncated, D143A, DHFR fusion (Arabidopsis thaliana)
Technique: DHFR PCA, deep sequencing
Sample: yeast
Setting: methotrexate growth selection, single substitutions
Together with: (+)-ABA 200 µM
Relative to: wild-type fitted maximum
Direction: higher = stronger binding
Starting sequence: PYL1, truncated, DHFR fusion (Arabidopsis thaliana); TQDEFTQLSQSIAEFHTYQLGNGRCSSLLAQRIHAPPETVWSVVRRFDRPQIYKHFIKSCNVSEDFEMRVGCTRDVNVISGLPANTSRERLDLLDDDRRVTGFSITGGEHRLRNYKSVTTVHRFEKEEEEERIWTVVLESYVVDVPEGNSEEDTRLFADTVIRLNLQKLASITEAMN
Variant | relative binding score [%]
W134E | 111
S117T | 28.9
S42C | 91.4
R113N | 93.6
A175S | 100
L164V | 101
V44D | -17.9
E64W | 92.4
S80P | 34.6
T173N | 69.1
S117V | -5.12

Set 3
Target: PABPC1L2, full length, GST fusion (mouse, UniProt A0ABA7IW68)
Technique: RNAcompete
Molecule type: RNA
Sample: in vitro
Tested at: 20 nM
Setting: 7-mer, probes averaged, single round
Relative to: mean of 7-mers
Direction: higher = stronger binding
Residues (chain): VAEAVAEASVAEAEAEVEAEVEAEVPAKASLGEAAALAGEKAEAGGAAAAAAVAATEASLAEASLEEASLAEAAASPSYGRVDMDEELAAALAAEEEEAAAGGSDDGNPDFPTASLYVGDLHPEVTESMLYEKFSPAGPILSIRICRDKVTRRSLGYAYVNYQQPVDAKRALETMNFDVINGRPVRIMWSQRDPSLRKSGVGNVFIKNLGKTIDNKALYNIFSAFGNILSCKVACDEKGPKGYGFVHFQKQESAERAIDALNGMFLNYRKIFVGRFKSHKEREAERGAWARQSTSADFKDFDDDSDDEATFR
Oligonucleotide | 7-mer Z-score
GUGAGCA | -0.211
CAUUACA | -0.012
AUUUCCU | -0.318
CUUGUAC | -0.338
GCCUAGU | -0.306
UUACAUA | -0.151
UUCAUGG | -0.182
GGAUCAG | 0.231
UAGGUUU | -0.347
UGGUUGA | -0.144
CACCGGU | -0.0645

Further values, each from its own experiment
Molecule | target | test | system | setting | scale | endpoint | value
PhoQ, residues 284 288 289 292 302 303 SIHLQL | PhoP, residues 12 14 15 18 19 YHFSH (Escherichia coli, UniProt P23836) | Sort-seq, measured: YFP reporter | E. coli | PhoQ-PhoP variant library, together with: 10 µM Mg2+ | relative to: high Mg2+ state, higher = stronger signaling | fold induction | 0.983

A few entries again (set 2):
Variant | relative binding score [%]
S117V | -5.12
V44D | -17.9
E64W | 92.4
